Measured values collected from several papers.
Parts stem from different laboratories: compare values within a part only. Substitutions count along the parent as printed.

Block 1
Target: CCND3, cyclin fold, Cln2 fusion (human)
Method: yeast growth competition, sequencing
Sample: yeast
Notes: weak parent motif
Baseline: not given
Direction: higher = stronger binding
Measurement: normalised enrichment score
Starting sequence: SLBP docking peptide (human); ARYKRKLLINDFG
Y3N: 0.138
Y3H: 0.159
D11S: 0.114
D11F: 0.132
F12G: 0.187
N10R: 0.091
F12C: 0.0821
K6I: 0.136
R2G: 0.122
G13D: 0.084
L8R: 0.086
A1Q: 0.0368
L8S: 0.0861
D11V: 0.165
N10P: 0.172
A1F: 0.0235
L8M: 0.182
D11P: 0.212
K6H: -0.0449
I9V: 0.124
K6T: 0.165
L8P: 0.154
K4A: 0.112
L7N: 0.23
L7Q: 0.13

Block 2
Target: Histone acetyltransferase KAT6A, winged helix 1, GST fusion (KAT6A, Homo sapiens, UniProt Q92794, residues 1-85)
Method: protein binding microarray
Molecule type: double-stranded DNA, one strand shown
Sample: in vitro
Tested at: not given
Notes: 8-mer, flanks averaged, mean of 2 arrays, mostly near background
Baseline: not given
Direction: higher = stronger binding
Measurement: E-score
Residues (chain): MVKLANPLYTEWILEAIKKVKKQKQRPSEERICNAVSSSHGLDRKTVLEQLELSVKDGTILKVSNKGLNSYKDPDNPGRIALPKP
AATGCTGG: -0.186
ATAACTTG: -0.188
CTTCCATC: -0.206
ATTCGAGC: -0.143
AGCGGATC: 0.158
CTTAGCTC: -0.0783
TCTACGAA: -0.287
GATCTTGC: 0.00731
AACACGCT: 0.0335
AGGAACGG: 0.102
AAACAAGT: -0.167
GCGCAAGA: 0.225
TCCAAACA: -0.0821
ACGGCTTG: 0.344
AATCCTCA: -0.248
GGCGCTAC: 0.294
ACGTAATC: 0.0384

Block 3
Target: Fragile X messenger ribonucleoprotein 1, C-terminal low-complexity region (Fmr1, Mus musculus, UniProt P35922)
Method: RNA Bind-n-Seq
Molecule type: RNA
Sample: in vitro
Tested at: 200 nM
Notes: whole 134-nt RNA, ends assumed
Added: 150 mM KCl
Baseline: input library
Direction: higher = stronger binding
Measurement: log2 enrichment
Shared flanks, not repeated: GGGAGUUCUACAGUCCGACGAUC … UGGAAUUCUCGGGUGUCAAGG
UCAAGUCCUGUGCUACACAUCGUAUGUACCGAAUCGGGGUUGGGUUGGGGUUGGGAAAGUAUUAUGUUACGCCGUUCGGAUCUGCACUUC: 1.36
CAAGUCCUGUGCUACACAUCGUAUGUACCGAAUCGGGAAAAAGGGAAAGGGAGGGAAAGUAUUAUGUUACGCCGUUCGGAUCUGCACUUC: 0.649
UGGGAGGUGGAUUUUGUUUAUUUUUUUAGCUCAUUUCCAGGGGUGGGAAUUUUUUUUUAAUCUGUGUCAUGAAUAAAGUUGUUUUUGAAA: 0.502
CACAGACAACACGCCCCCACACAGACACAGAGGGAAGGGGUUGGGAUGGGGACAGGGUGCACAGCAGGGCGGGGUAGGACCCCAGCCCCU: 1.55
GUAGGAAGUAAAAACAAAUGGAAAUGCUUCGGAUAGUGGCAGGGGUGGGGGUUGCUAAGGAAAGGGUGGGAUGGGAGUGGGUAAAGAGUU: 0.641
ACCAUGCAGGUGGGCAUCUUUGGGAAGUGGGGCAAGGGGGGGAUAGGGAGGGGGGUAACACUUUGGGAACAGGUGAUCCCAGGUCGUUUC: 0.832
AAGUCCUGUGCUACACAUCGUAUGUACCGAAUCGGGAAAAGGAAAAGGGGAAAAGGGAAAGUAUUAUGUUACGCCGUUCGGAUCUGCACU: -0.21
GUUGUAGACACUCCUGGGAUCCUGGACCACCCUCUGGAGGAUAGGAACACCAUCGAGAUGCAGGCCAUCACUGCCCUGGCCCACCUCCGU: 0.444
CCUCAAGUCCUGUGCUACACAUCGUAUGUACCGAAUCGGGGUGGGUGGUGGGAAAGUAUUAUGUUACGCCGUUCGGAUCUGCACUUCCAG: 1.24
UGUCCCUGACUCUCCAUUUCCCCAUCUGAGUGGAUUUGGACCUAAUAGGGCACUGGAGCUGGUUCGAAUCCUGACUGGACUACUUGGCAA: 0.106
UGGCCCUGGUGGCAUGCGGGGAGGAAGAGGUGGCCUCAUGGAUCGUGGUGGUCCCGGUGGAAUGUUCAGAGGUGGCCGUGGCGGAGACAG: 0.117
CCUGUGCUACACAUCGUAUGUACCGAAUCGGGGCCCCCCGGGCCCCCCGGGCCCCCCGGGGAAAGUAUUAUGUUACGCCGUUCGGAUCUG: -0.947
UCAAGUCCUGUGCUACACAUCGUAUGUACCGAAUCGGGUUGGGGUUGGGGUUGGAAAGUAUUAUGUUACGCCGUUCGGAUCUGCACUUCC: 0.231
UAACUUUAGAGGAGGAUCUGAUGGAUAUAGCAGUGGACGUGGAUUUGGGGAUGGCUAUAAUGGGUAUGGAGGAGGACCUGGAGGUGGCAA: 0.366

Block 4
Substance: PhoQ, residues 284 288 289 292 302 303 TVTVVA
Method: Sort-seq
Measured: YFP reporter
Sample: E. coli
Notes: PhoQ-PhoP variant library
Added: 10 µM Mg2+
Baseline: high Mg2+ state
Direction: higher = stronger signaling
Measurement: fold induction
PhoP, residues 12 14 15 18 19 HHYTI (Escherichia coli, UniProt P23836): 2.4
PhoP, residues 12 14 15 18 19 AYFRS (Escherichia coli, UniProt P23836): 12.9
PhoP, residues 12 14 15 18 19 SFCSL (Escherichia coli, UniProt P23836): 17.4

Block 5
Target: RNA binding protein fox-1 homolog 2, RRM domain, GST-SBP tag (RBFOX2, Homo sapiens, UniProt O43251-10, residues 100-194)
Method: RNA Bind-n-Seq
Molecule type: RNA
Sample: in vitro
Tested at: 365 nM
Notes: natural RNA segment, single round, ends assumed
Baseline: no-protein control
Direction: higher = stronger binding
Measurement: RBNS enrichment (R)
Shared flanks, not repeated: GGGAGUUCUACAGUCCGACGAUC … UGGAAUUCUCGGGUGCCAA
Residues (chain): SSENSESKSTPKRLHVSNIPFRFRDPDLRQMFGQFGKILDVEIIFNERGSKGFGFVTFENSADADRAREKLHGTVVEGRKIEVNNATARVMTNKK
UGCCUUUGCAGUACAUGAAACAUCCCAUUCUUUGUUCUUGAUGGGAUAGGGGUCGUUAUUGUAGCAUAUUUGGUUUCUAAAUCACUGCUUAUUUUUAUUUGCAAUCUCUA: 0.706
GUGAGGGAAGCCACUUAAAGACUAUGCCCCACCUUCAGCUCCUCACCCCAGAAACUCCAGCCAGCACCACCGACACAACCAGACCAGCGCCACACCGCACUGAGGACUCC: 0.367
GAGCAUCUGUGUGUCCUGCAGCCUCCUCUGAACUUGUGGUUCAUUCUCAGGCUGGGGUGGACUCAGAUGCCAGGAAAGGGACAGCCUCCCAUUGUCAGGCAGAAGCUGCC: 0.394
UUAAAGCUUCCUGGUGCCUGUCUGCCAGGUCAUGGAGGAUUCCCCAAUCUGGCAUCCCCACGAUGCCUCUGGAGAGAUGGCCUUGAUUGCCCCUCAAAGCCACCUGAACC: 0.31
UGUGUGUGUGUACGUGAGGCAGAAGAAUAUGACAGAUGUCAGCUUCUCCCUGUGUCAGAUGAUAUGUCCUUGAAGCUGGCAGGGGAUUCCCAGUCCAGGGAAUAUCCCUA: 2.12
AAGGAAAAAAAAACAAAAUAACAAGGGUUAGAAGUUCAAAGUAAAAAACAGACAUCUUUGAUUUCUGAUUAAGAAAAAGCACUCUACAUCUUUUUUUUUUAAGUUUUCUA: 0.818
CAGGUUCCACGCCAUCUGCAUGGCCUGCAGGAGCUUCUGCUGCUGACCCCAUGCUGAGUGGCCAGUGGGGAGCGGCGCCCGGCAGGCUCUUCUGGGGUCGUCUGUCCUAU: 0.409
CUCCACCAGGACCAGGAUCCUGGGCCACAGGCUGGGAUGGUCCUUCCAAGAAAGGGUCAUUUCAGACGCAGCCCUGCUUGGGCUAUUCAAUCUUAGGGUGUCUAUCCACG: 0.246
AAAUAUUUAAAGUCUCCAAAAUAAAACACCCCAACGUUGACCUUACCCGGCUGAUGGUUAGCCCCUUGCUGCCUGCUCCAUGUGUCUUAUGAGAGCCCGUAGUUACAGUG: 0.473
AAGUGACAGACGUCUACAGCAUUCCAGCUAUGAUCAUGUUGAUUCUGAAAUCAUGUAAAUUAAGAUUUGUUAGGCUGUUUUUUUUUUAAAUAAACCAUCUUUUUAUUGAU: 0.884
AUACAUCUAUAGUUCUCCCCCGGGGAGCUAGUGUUUGAACUUUGAAGUCUGCUCAGCUGCAUGGUGGAAAGGACUGUGUUCUUUUUUUUCUUGCACACAAUUCCUUUGAA: 1.01
AUUAACUGUCACCUUUUAUUCUUAAACUUGAAAGUACAGAAAUCAUUAAAUUAUUAAGUUGUACAAUAAAAGGAUUGGUUUCUUUUCUUUUUUUUUUUUUUAAGUGCUUC: 0.942

Block 6
Target: RING finger protein unkempt homolog, zinc fingers 1-6, GST-SBP tag (UNK, Homo sapiens, UniProt Q9C0B0, residues 30-357)
Method: RNA Bind-n-Seq
Molecule type: RNA
Sample: in vitro
Tested at: not given
Notes: RNA with constant flanks, ends assumed
Baseline: input RNA pool
Direction: higher = stronger binding
Measurement: bound/input enrichment
Shared flanks, not repeated: GGGAGUUCUACAGUCCGACGAUC … CAACAGAGGAUUGAGCAUCA
Construct (chain): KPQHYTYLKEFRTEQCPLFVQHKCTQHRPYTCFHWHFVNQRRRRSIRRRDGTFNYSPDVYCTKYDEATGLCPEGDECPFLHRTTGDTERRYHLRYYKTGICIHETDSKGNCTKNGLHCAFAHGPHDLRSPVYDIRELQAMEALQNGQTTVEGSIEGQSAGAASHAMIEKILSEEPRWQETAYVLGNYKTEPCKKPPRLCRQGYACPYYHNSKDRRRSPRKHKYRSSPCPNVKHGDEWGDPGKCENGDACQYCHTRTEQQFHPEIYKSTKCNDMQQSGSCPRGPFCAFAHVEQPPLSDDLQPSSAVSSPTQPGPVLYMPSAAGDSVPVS
UUAUUAUAGCUUUGAAAUAAAAAAUCGUGAGGGAAAAAAAAUCCAAUGAUUGUACUGUGGUCCGGAGUUUUAUUACCAAGACAUUUAUGUCACUUUUCUUUCCCUUGUCAUUUUGAGGGG: 0.765 ratio
AACAAACUUAUAGUGACGCGUUGGAAGGCUAACCGAAGCCAUCCUUACCCCUAUUUAAUGCCGCUUGGCUUGCUUUCCCUUUUAUCUGAUGUUACCAUUGCGAUCUAGCUUUCUUUUCAU: 0.616 ratio
UCCCCUCAAGCACCAACACACUUUCUGGUGAUACCCAAGAAGCAUAUAUCCCAGAUUUCUGCCGCAGAUGAUGAUGAUGAAAGUCUUCUAGGACAUUUAAUGAUUGUUGGCAAGAAAUGU: 0.34 ratio
AGUACUGCCCGUGCAAAUCCCACAACACUGAAUGCAAAGUAGCAAUUUCCAUAGUCACAGUCCGGCCGCUUUAGGGCAAUAUUGCCAUGGUUUUACUCAUGUGCAGGUUUUGAAAAUGUA: 16.7 ratio
CCGUGUGACCCUUGGGCUUUCAGCGUGCACUCAGUUCCGUAGGAUUCCAAAGCAGACCCCCCGCUGGUCUUUGAAUCUGCAUGUACUUCACGUUUUCUAUAUUUGUAACUUUGCAUGUAU: 0.143 ratio
AAAUUCAAAGGCCCCUUCACAGAUGUAGUCACUACAAAUCUUAAAUUGCGAAAUCCAUCGGACCGAAAAGUGUGUUUCAAAGUGAAGACUACAGCACCUCGCCGGUACUGUGUGAGGCCC: 0.259 ratio
CUAAAGGCAGAAAACCUGCUCCUGGAUGCUGAUAUGAACAUCAAGAUUGCAGACUUUGGCUUCCGCAACGAAUUCACCUUUGGGAACAAGCUGGAUACUUUCUGUGGCAGUCCUCCUUAU: 0.0984 ratio
CUCACGGCCCAGCAUGAGAACUUCAGGAAAAAGCAGAUUGAAGAGCUGAAGGGACAAGAAGUCCGUCCUAAAGUGUACUUCAUGAAGCAGACCAUUGGGAAUUCCUGUGGCACAAUCGGA: 0.116 ratio

For quick reference, copied from above (block 1):
L8M: 0.182
N10R: 0.091
A1F: 0.0235
L8P: 0.154
Y3H: 0.159
F12C: 0.0821
A1Q: 0.0368
G13D: 0.084
